Measured values collected from several papers.
UniProt P29275, sequence (whole entry, looked up): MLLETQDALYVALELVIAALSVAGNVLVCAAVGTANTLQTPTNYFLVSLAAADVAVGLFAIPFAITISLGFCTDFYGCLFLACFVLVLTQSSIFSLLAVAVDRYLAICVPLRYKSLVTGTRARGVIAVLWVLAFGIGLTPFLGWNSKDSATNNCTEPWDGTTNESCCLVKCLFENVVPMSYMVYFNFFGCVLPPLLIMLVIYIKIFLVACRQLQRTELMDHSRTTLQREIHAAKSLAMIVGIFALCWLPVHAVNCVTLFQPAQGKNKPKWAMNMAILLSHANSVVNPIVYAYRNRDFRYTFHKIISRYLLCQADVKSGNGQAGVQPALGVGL
UniProt Q12866, sequence (whole entry, looked up): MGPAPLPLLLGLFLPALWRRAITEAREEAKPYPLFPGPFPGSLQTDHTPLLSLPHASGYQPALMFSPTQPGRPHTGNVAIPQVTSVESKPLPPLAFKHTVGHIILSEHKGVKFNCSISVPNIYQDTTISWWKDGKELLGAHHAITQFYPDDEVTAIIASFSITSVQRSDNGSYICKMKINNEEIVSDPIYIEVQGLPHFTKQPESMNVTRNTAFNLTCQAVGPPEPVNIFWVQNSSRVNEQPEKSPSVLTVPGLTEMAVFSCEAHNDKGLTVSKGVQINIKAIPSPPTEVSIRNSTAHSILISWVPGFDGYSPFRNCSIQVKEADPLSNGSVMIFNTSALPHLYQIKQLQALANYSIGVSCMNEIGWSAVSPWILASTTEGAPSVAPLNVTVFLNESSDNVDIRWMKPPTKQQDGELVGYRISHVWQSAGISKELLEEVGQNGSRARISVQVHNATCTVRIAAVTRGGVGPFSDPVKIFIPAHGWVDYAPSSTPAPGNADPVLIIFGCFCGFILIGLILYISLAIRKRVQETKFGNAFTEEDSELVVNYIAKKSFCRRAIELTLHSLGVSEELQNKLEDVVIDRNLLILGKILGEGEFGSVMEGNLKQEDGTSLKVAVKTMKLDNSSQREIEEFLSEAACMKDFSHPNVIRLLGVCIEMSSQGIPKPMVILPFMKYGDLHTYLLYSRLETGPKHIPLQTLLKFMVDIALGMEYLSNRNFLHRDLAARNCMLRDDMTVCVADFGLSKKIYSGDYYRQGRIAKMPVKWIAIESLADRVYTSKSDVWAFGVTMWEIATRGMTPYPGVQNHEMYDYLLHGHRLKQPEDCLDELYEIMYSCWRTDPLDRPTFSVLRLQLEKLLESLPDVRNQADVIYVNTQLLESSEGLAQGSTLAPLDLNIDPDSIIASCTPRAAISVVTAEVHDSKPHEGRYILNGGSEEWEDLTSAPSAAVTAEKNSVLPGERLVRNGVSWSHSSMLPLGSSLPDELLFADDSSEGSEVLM
UniProt P35367, sequence (whole entry, looked up): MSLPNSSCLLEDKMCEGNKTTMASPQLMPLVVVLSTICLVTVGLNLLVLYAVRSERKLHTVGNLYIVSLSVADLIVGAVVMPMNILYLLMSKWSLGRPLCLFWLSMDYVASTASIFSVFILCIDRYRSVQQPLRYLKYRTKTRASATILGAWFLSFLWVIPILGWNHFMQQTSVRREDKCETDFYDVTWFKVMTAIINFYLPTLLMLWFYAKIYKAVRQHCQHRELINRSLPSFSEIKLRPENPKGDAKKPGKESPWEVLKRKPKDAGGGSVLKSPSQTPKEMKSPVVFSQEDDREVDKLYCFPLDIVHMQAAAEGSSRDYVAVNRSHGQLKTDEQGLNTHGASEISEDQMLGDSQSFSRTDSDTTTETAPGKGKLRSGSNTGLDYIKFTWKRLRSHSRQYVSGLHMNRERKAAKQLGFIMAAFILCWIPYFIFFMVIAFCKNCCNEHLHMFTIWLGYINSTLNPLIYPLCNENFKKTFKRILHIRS
UniProt O75116, sequence (whole entry, looked up): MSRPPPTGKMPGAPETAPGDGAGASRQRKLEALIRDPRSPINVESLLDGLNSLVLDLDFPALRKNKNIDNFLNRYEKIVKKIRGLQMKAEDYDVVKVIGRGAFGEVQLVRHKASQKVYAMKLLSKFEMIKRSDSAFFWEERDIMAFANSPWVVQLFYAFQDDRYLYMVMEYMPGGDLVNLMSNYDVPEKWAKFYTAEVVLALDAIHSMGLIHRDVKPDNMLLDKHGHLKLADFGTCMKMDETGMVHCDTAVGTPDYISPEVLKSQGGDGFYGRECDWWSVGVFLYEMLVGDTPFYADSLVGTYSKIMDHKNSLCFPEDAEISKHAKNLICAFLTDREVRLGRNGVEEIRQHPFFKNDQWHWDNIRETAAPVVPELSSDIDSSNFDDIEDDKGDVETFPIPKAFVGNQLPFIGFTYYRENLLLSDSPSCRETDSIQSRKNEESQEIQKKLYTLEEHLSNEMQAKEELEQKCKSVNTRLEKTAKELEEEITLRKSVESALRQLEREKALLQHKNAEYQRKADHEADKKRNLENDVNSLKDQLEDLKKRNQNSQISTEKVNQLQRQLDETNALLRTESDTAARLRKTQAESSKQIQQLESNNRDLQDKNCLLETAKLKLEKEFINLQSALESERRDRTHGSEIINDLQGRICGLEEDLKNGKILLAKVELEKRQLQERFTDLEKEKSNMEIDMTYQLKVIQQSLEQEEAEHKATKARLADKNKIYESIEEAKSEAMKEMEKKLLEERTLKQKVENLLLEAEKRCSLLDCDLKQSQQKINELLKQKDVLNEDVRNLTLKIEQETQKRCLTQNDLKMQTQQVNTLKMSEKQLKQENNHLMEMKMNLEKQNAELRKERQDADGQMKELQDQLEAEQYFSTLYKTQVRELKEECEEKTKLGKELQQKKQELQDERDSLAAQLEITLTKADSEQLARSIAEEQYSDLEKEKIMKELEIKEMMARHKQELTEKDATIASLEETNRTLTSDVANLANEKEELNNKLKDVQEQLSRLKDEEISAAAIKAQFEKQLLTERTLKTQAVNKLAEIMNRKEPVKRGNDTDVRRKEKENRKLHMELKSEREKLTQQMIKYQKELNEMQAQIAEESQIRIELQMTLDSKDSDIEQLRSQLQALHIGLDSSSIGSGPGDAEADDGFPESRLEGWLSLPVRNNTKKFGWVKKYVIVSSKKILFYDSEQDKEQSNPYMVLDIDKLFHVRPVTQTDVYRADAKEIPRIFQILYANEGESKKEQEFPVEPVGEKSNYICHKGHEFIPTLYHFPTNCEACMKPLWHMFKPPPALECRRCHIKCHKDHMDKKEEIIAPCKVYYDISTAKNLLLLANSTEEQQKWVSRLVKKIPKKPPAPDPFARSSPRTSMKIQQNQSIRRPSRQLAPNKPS
UniProt P53671, sequence (whole entry, looked up): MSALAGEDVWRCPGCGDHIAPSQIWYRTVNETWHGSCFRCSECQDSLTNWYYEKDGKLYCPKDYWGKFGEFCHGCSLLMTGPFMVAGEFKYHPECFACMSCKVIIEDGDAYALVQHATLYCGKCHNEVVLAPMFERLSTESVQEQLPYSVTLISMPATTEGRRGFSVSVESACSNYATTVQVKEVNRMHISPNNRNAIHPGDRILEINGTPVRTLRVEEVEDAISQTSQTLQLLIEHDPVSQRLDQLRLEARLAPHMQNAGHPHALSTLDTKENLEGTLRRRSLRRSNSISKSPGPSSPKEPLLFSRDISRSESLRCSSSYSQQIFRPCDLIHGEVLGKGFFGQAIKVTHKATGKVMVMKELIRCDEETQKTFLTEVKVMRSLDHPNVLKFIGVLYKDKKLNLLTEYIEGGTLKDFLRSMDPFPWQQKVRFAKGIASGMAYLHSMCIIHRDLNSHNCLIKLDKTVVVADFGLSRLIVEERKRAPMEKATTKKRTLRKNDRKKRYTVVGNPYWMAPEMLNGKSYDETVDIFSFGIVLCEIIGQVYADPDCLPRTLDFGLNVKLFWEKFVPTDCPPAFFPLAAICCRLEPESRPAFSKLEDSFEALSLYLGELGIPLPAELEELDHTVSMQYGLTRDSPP
UniProt Q6QNK2, sequence (whole entry, looked up): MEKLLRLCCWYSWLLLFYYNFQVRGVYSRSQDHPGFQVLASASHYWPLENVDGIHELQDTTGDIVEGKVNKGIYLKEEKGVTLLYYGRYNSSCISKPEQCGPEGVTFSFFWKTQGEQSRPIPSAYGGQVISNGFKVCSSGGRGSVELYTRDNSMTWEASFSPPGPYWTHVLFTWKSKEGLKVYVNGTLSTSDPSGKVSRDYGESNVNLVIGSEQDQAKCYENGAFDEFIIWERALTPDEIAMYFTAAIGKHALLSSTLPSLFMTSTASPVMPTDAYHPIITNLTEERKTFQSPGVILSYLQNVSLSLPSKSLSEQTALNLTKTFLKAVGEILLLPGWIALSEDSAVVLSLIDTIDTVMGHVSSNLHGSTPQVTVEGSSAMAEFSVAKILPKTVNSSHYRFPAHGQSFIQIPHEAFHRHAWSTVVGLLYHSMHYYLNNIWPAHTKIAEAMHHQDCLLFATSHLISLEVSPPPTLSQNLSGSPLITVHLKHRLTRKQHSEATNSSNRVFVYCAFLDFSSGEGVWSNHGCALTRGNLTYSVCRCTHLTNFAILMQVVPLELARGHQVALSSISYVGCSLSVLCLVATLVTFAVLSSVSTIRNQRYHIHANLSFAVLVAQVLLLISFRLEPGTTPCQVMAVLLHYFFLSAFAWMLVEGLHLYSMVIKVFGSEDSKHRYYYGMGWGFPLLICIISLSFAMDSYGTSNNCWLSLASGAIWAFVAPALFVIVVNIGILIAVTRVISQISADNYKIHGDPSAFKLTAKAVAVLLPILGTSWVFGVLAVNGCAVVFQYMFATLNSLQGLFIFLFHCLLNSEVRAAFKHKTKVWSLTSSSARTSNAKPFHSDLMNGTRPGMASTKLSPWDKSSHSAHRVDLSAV

For `[2H]c1c([2H])c([C@]2([2H])CCCN2C(=O)C(C)(C)Oc2ccc3cn[nH]c3c2)c([2H])c([2H])c1C([2H])([2H])[2H]`, the remaining binding was 86% (LIM domain kinase 2 (LIMK2, Homo sapiens, UniProt P53671); KINOMEscan; 1 µM; reference: DMSO control).
`CO[C@H]1C[C@@H]2CC[C@@H](C)[C@@](O)(O2)C(=O)C(=O)N2CCCC[C@H]2C(=O)O[C@H]([C@H](C)C[C@@H]2CC[C@@H](OC(=O)NCCOCCOCCOCCOCCOCCOCCOCCOCCC(=O)N3CCc4cc(Cn5nc(-c6ccc7oc(N)nc7c6)c6c(N)ncnc65)ccc4C3)[C@H](OC)C2)C[C@@H](O)[C@H](C)/C=C(\C)[C@@H](O)[C@@H](OC)C(=O)[C@H](C)C[C@H](C)/C=C/C=C/C=C/1C`: “incidence of Diarrhea TRAE” 20% (patients with advanced solid tumours; intravenous, 1.6 mg/3 mg weekly, any grade).
For `O=C(c1ccc(Cl)cc1)N1CCN2C(=O)N(OC(=O)N3CCOc4ccccc43)C(=O)C2C1` (stereo not shown), the median ratio was 1.13 (Lysophosphatidylserine lipase ABHD12 (Homo sapiens, UniProt Q8N2K0); enzyme activity, inhibitor, MS-based ABPP; SW-620 in situ; 10 µM, 2 h, 37 °C; reference: compound over DMSO, lower = stronger inhibition).
`O=C(Nc1cccnn1)N1CCC(=Cc2cccc(Oc3ccc(C(F)(F)F)cn3)c2)CC1` — result for “inhibition of binding”: 36% (Histamine H1 receptor (HRH1, Homo sapiens, UniProt P35367); radioligand binding; 10 µM, together with: [3H]pyrilamine).
With `COc1cc(Nc2ncc(F)c(Nc3ccc4c(n3)NC(=O)C(C)(C)O4)n2)cc(OC)c1OC` the IC50 was > 10 µM (lipid peroxidase).
With `CC[C@H](C)[C@H](NC(=O)[C@H](Cc1ccccc1)NC(=O)[C@H](CCC(=O)O)NC(=O)[C@H](CCCNC(=N)N)NC(=O)[C@H](C)NC(=O)[C@H](C)NC(=O)[C@H](CCC(N)=O)NC(=O)[C@H](CCC(=O)O)NC(=O)[C@H](CCC(=O)O)NC(=O)[C@H](CC(C)C)NC(=O)[C@H](Cc1ccc(O)cc1)NC(=O)[C@H](CO)NC(=O)[C@H](CO)NC(=O)[C@@H](NC(=O)[C@H](CC(=O)O)NC(=O)[C@H](CO)NC(=O)[C@@H](NC(=O)[C@H](Cc1ccccc1)NC(=O)[C@@H](NC(=O)CNC(=O)[C@H](CCC(=O)O)NC(=O)[C@H](C)NC(=O)CCc1c[nH]cn1)[C@@H](C)O)[C@@H](C)O)C(C)C)C(=O)N[C@@H](C)C(=O)N[C@@H](Cc1c[nH]c2ccccc12)C(=O)N[C@@H](CC(C)C)C(=O)N[C@H](C(=O)N[C@@H](CCCNC(=N)N)C(=O)NCC(=O)N[C@@H](CCCNC(=N)N)C(=O)N[C@@H](CCCCNC(=O)COCCOCCNC(=O)COCCOCCNC(=O)CC[C@H](NC(=O)CCCCCCCCCCCCCCCCC(=O)O)C(=O)O)C(=O)NCC(=O)NCC(=O)N[C@@H](CO)C(=O)N[C@@H](CCCCNc1c(NCCCCCN(O)C(=O)CCC(=O)NCCCCCN(O)C(=O)CCC(=O)NCCCCCN(O)C(C)=O)c(=O)c1=O)C(=O)O)C(C)C` [zirconium-89 labelled] the tissue uptake was 0.27 %ID/g (rat, spleen; sc, 3 nmol/kg, 24 h, ex vivo).
`CN(C(=O)n1cnc(-c2ccc[n+]([O-])c2)c1)C1CCCCC1` has an inhibition of 26.7% (Abhydrolase domain-containing protein 11 (Rattus norvegicus, UniProt D3ZXK4); probe labelling, inhibitor, competitive ABPP with azido-FP probe, measured: Abhd11; rat brain membrane fraction; 100 µM).
`COc1cc(N)c(Cl)cc1C(=O)NC1CN2CCC1CC2` (stereo not shown) — result for “log2 fold change”: 0.764 (Adhesion G-protein coupled receptor D1 (ADGRD1, Homo sapiens, UniProt Q6QNK2); β-arrestin recruitment, TANGO luminescence, measured: GPR133; concentration not given; reference: basal luminescence).
`C[C@H]1CN(c2n[nH]c3nc(N[C@H]4CC[C@H](NS(=O)(=O)CCC(F)(F)F)CC4)ncc23)CCO1` gave a relative abundance of 1.03 (Rho-associated protein kinase 2 (ROCK2, Homo sapiens, UniProt O75116); inhibitor, Kinobeads competition profiling; 0.032 µM; reference: vehicle).
Under “log2 fold change”, `CC[C@H](C)[C@@H]1NC(=O)[C@@H]2CCCN2C(=O)[C@H](CC(C)C)NC(=O)[C@H](CC(C)C)NC(=O)CNC(=O)[C@@H](NC(=O)[C@@H](NC(=O)[C@H](CC(=O)O)NC(=O)CNC(=O)[C@@H](NC(=O)[C@H](C)NC(=O)CNC(=O)[C@H](CCCCN)NC(=O)[C@H](CC(C)C)NC(=O)[C@H](CC(C)C)NC(=O)[C@H](CCCCN)NC(=O)CNC(=O)[C@@H](NC(=O)[C@@H](N)CC(C)C)C(C)C)C(C)C)C(C)C)CSSC[C@@H](C(=O)O)NC1=O` is recorded as -3.5 (RNA-seq, measured: Mgam mRNA; mouse traumatic brain injury, frontal cortex and hippocampus; dose not given; reference: TBI plus compound vs TBI).
`COc1ccc(N2C(=O)N(c3c(C)cccc3Cl)Cc3cnc(Nc4ccc(C5CCN(C)CC5)cc4OC)nc32)nc1` gave an inhibition of 5% (Tyrosine-protein kinase Mer (MERTK, Homo sapiens, UniProt Q12866); kinase activity, inhibitor; 0.5 µM, kinase MER).
`O=C(Nc1cnccc1Cl)N1CCN(Cc2ccc3c(c2)OC(F)(F)O3)CC1`: “inhibition of binding” -2% (High affinity choline transporter 1 (Rattus norvegicus, UniProt Q9JMD7); radioligand binding; 10 µM, rat transporter, together with: [3H]hemicholinium-3).
`CN1CCN(c2cc(-c3ccncc3)c(-c3ccc4ccccc4c3)nn2)CC1` gave an activation of -2.5% (Adenosine receptor A2b (ADORA2B, Homo sapiens, UniProt P29275); agonist, FLIPR; 12.5 µM).
